Results gathered from unrelated publications.
A part holds a random share of what one study measured. Substitutions count along the parent as printed.

Block 1
Target: Prothrombin, mature alpha-thrombin (F2, Homo sapiens, UniProt P00734)
Technique: aptamer microarray, sandwich
Form: DNA with 2'F-ANA
Matrix: in vitro
Tested at: 200 nM
Setting: whole 15-mer aptamer, many near background
With: Cy3 exosite-II aptamer, 400 nM
Reading: higher = stronger binding
Sequence: GGTTGGTGTGGTTGG
Modification	mean fluorescence intensity [a.u.]
2'F-ANA at 4 5 6 8 9 10 12	51.2
2'F-ANA at 1 2 3 4 6 11 12 13	186
2'F-ANA at 3 4 5 6 9 11 12 13 14	52.4
2'F-ANA at 2 4 6 7 8 11 12 14	127
2'F-ANA at 1 5 6 7 8 9 10 11 12 14	50.2
2'F-ANA at 4 5 6 8 12 13	124
2'F-ANA at 2 3 5 7 8 9 13	118
2'F-ANA at 2 4 5 6 7 8 9 12 13 14	46.9
2'F-ANA at 1 3 4 5 6 8 9 12 14	50.6
2'F-ANA at 2 3 6 8 11 14 15	342
2'F-ANA at 2 4 5 6 9 10 11 12 15	149
2'F-ANA at 1 3 5 7 8 9 11 13 14 15	50.8
2'F-ANA at 4 5 8 9 10 11 14 15	84.2
2'F-ANA at 2 3 4 7 10 13 14	198
2'F-ANA at 1 2 5 6 7 8 9 10 13	50.4
2'F-ANA at 2 3 6 7 8 10	322
2'F-ANA at 4 5 6 7 10 12 13	57.2
2'F-ANA at 4 5 6 8 9 10 11 12 13 15	48.7

Block 2
Target: TAR DNA-binding protein 43, full length, His tag (TARDBP, Homo sapiens, UniProt Q13148, residues 1-414)
Technique: RNA Bind-n-Seq
Form: RNA
Matrix: in vitro
Tested at: 20 nM
Setting: 6-mer, flanks averaged, single round
With: 150 mM LiCl
Relative to: input library
Reading: higher = stronger binding
Sequence	6-mer enrichment (R)
UCAACG	0.785
GAACCU	0.875
AUGUAA	0.953
GAGUCU	0.902
UUCGUU	0.973
UACAAC	0.832
GCGAGU	1.11
CAGAGA	0.864
CGGAUU	0.907
CGUACG	0.882
CGAAGA	0.826
CGCCCC	1.22
GACGCU	0.868
UCUUCU	0.931
CCCGCG	0.991
GUUAGG	1.16
CUAGAA	0.858
GUGCCC	1.13

Block 3
Organism: Saccharomyces cerevisiae
Observed: binding
Technique: yeast competitive growth sequencing
Form: peptide
Strain: cyclin A1-Cln2 strain
Matrix: peptide tiling library
Setting: pooled screen
Reading: direction not given
Molecule	enrichment score
RSLKLDGLLEEN	-0.997
TSSAQRRLEIPSGGAD	-0.178
RVSGLLSWTLSRVLWL	0.0145
PFSENVSAVQKLDFSD	1.54
PLRKAKRARLCSSSSS	1.6
AGSAKRRLFGEDPPKE	1
IQKKLRFEDTLEFVGF	-1.05

Block 4
Target: JDP2, bZIP domain (human)
Technique: DHFR protein complementation
Matrix: yeast
Setting: single substitutions, most at no-binding floor
Relative to: wild-type JUN-FOS pair
Reading: higher = stronger binding
Starting sequence: JUN, bZIP domain (human); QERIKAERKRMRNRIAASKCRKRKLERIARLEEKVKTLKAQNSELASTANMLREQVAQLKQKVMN; partner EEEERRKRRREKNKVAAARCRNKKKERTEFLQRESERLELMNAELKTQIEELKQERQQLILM
Change	binding fitness [natural log]
A46N	0.33
E32V	0.226
L52A	-0.108
S43M	0.25
A49Y	0.23
R53L	0.206
N42T	0.171
E44I	0.148
A57M	0.18
V35N	0.172
A46I	0.229
K39T	0.315
M51H	0.258
L31D	0.197
I28N	0.244
V35H	0.175

Block 5
Target: UBE2G1 UBC core domain (UniProt P62253)
Technique: yeast two-hybrid
Matrix: yeast
Setting: mostly zero background
Relative to: not given
Reading: higher = stronger interaction
B1: TRIM43 RING domain (UniProt Q96BQ3); chain FSHAFQKELTCVICLNYLVDPVTICCGHSFCRPCLCLSWEEAQSPANCPACREPSPKMDFKT
B2: RNF208 RING domain (UniProt Q9H0X6); chain SSAAAGEPLECPTCGHSYNVTQRRPRVLSCLHSVCEQCLQILYESCPKYKFISCPTCRRETVLFTDYG
B3: DTX4 RING domain (UniProt Q9Y2E6); chain QKVRHPPDEDCTICMERLTAPSGYKGPQPTVKPDLVGKLSRCGHVYHIYCLVAMYNNGNKDGSLQCPTCKTIYGVKTGTQ
B4: TRIM13 RING domain (UniProt O60858); chain MELLEEDLTCPICCSLFDDPRVLPCSHNFCKKCLEGILEGSVRNSLWRPAPFKCPTCRKETSATGINS
B5: SH3RF2 RING domain (UniProt Q8TEC5); chain DDLTLLDLLECPVCFEKLDVTAKVLPCQHTFCKPCLQRVFKAHKELRCPECRTPVFSNIEAL
B6: TRIM5 RING domain (UniProt Q9C035); chain LREVKLSPEGQKVDHCARHGEKLLLFCQEDGKVICWLCERSQEHRGHHTFLTEEVAREYQVKL
B7: TRIM40 RING domain (UniProt Q6P9F5); chain LQKDNQEEGVCPICQESLKEAVSTNCGHLFCRVCLTQHVEKASASGVFCCPLCRKPCSEEVLG
B8: NEURL1 RING domain (UniProt O76050); chain VTPGLGQWSDECTICYEHAVDTVIYTCGHMCLCYACGLRLKKALHACCPICRRPIKDIIKT
Construct (chain): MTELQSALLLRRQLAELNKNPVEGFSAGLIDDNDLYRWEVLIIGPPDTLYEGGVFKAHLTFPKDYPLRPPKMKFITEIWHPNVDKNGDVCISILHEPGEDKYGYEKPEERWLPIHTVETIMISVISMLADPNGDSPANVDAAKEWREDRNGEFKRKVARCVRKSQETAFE
Molecule	lacZ reporter activity
B1 (TRIM43 RING domain)	0
B2 (RNF208 RING domain)	0
B3 (DTX4 RING domain)	0
VEPSEENSKDCVVCQNGTVNWVLLPCRHTCLCDGCVKYFQQCPMCRQFVQESFALC (CGRRF1 RING domain (UniProt Q99675))	0
B4 (TRIM13 RING domain)	0
B5 (SH3RF2 RING domain)	0
B6 (TRIM5 RING domain)	0
B7 (TRIM40 RING domain)	0
B8 (NEURL1 RING domain)	0

Block 6
Target: Ras GTPase-activating protein-binding protein 1, RRM domain (G3BP1, Homo sapiens, UniProt Q13283)
Chain of UniProt Q13283 (whole entry, looked up): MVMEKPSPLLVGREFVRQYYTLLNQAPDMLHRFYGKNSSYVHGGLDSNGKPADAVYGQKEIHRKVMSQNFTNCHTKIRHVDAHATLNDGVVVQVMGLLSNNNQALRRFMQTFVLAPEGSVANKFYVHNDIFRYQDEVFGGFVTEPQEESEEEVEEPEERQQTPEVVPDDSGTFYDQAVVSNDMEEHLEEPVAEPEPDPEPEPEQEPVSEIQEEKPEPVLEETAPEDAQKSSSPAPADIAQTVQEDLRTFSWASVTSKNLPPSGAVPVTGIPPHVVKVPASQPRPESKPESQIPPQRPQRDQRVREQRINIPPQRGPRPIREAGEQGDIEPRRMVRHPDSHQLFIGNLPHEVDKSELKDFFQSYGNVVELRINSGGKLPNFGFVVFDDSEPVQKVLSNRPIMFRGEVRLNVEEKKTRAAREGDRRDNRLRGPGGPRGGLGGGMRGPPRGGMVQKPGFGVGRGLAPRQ
Technique: RNA Bind-n-Seq
Form: RNA
Matrix: in vitro
Tested at: 1 µM
Setting: whole 134-nt RNA, ends assumed
With: 150 mM KCl
Relative to: input library
Reading: higher = stronger binding
Constant ends, left off below: GGGAGUUCUACAGUCCGACGAUC … UGGAAUUCUCGGGUGUCAAGG
Sequence	log2 enrichment
GUCCUGUGCUACACAUCGUAUGUACCGAAUCGGUUUUUGGGUUUUUGGGGUUUUUGGGGAAAGUAUUAUGUUACGCCGUUCGGAUCUGCA	-0.168
UGUGCUACACAUCGUAUGUACCGAAUCGGGUUUUUUUGGGGUUUUUUUGGGGUUUUUUUGGGGAAAGUAUUAUGUUACGCCGUUCGGAUC	-0.0142
UAACUUUAGAGGAGGAUCUGAUUGAUAUGGCAGUGGACGUGGAUUUGGGGAUGGCUAUAAUGGGUAUGGAGGAGGACCUGGAGGUGGCAA	-0.768
GGAUUGGUAGCUUAUGUCGAUCUUGAUGAAAGAGCAAUUGAUGCUCUCAGGGAAUUUAAUGAAGAAGGAGCUCUGUCUGUACUACAGCAG	-0.261
AAGUCCUGUGCUACACAUCGUAUGUACCGAAUCGGGUUUUUGGGUGGGUUUUUGGGAAAGUAUUAUGUUACGCCGUUCGGAUCUGCACUU	0.547
GUCCUGUGCUACACAUCGUAUGUACCGAAUCGGGGCCCCCGGCCCCCGGGCCCCCGGGGAAAGUAUUAUGUUACGCCGUUCGGAUCUGCA	-0.681
GUCAAGUGCUUCUGCUCCUGAUGUGGAUGACCCAGAGGCAUUCCCAGCUCUGGCUUAACUGGAUGCCAUAAGACAACCCUGGUUCCUUUG	-0.0515
GUCCUGUGCUACACAUCGUAUGUACCGAAUCGGGCCCCCGGCCCCCGGGGCCCCCGGGAAAGUAUUAUGUUACGCCGUUCGGAUCUGCAC	-0.744
CACAGACAACACGCACCCACACAGACACAGAGGGAAGGGGUUGGGAUGAAAACAGGGUGCACAGCAGGGCGGGGUAGGACCCCAGCCCCU	-0.214
CAAGUCCUGUGCUACACAUCGUAUGUACCGAAUCGGGGAAAAGGAAAAGGAAAAGGAAAGUAUUAUGUUACGCCGUUCGGAUCUGCACUU	-0.205
CACAGACAACACGCACCCACACAGACACAGAGGGAAGGGGUUGGGAUGGGGACAGGGUGCAAAGCAGGGCGGGGUAGGACCCCAGCCCCU	-0.13
AAGUCCUGUGCUACACAUCGUAUGUACCGAAUCGGAAAAAGGUUUGGUUUUUUUGGAAAGUAUUAUGUUACGCCGUUCGGAUCUGCACUU	-0.307
CCUGUGCUACACAUCGUAUGUACCGAAUCGGGCCCCCCGGGCCCCCCGGGGCCCCCCGGGAAAGUAUUAUGUUACGCCGUUCGGAUCUGC	-0.671
GUCCUGUGCUACACAUCGUAUGUACCGAAUCGGGGUGGGGAAAAAAAGGGGUUUGGGGAAAGUAUUAUGUUACGCCGUUCGGAUCUGCAC	0.914

Block 7
Target: Histone acetyltransferase KAT6A, winged helix 1, GST fusion (KAT6A, Homo sapiens, UniProt Q92794, residues 1-85)
Technique: protein binding microarray
Form: double-stranded DNA, one strand shown
Matrix: in vitro
Tested at: not given
Setting: 8-mer, flanks averaged, mean of 2 arrays, mostly near background
Relative to: not given
Reading: higher = stronger binding
Residues (chain): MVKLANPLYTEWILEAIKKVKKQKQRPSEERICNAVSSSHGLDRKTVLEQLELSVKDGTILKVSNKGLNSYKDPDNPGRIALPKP
Sequence	E-score
GTACACGA	-0.116
AGCACGAG	-0.208
AGGAAAGA	-0.12
CCAGACGG	0.158
GCAGAACA	-0.0811
GCTGTTAA	0.0416
ACACGTAA	-0.117
AAGTCAGC	-0.109
GTTAAACA	-0.0993
GGAAGATA	-0.072
GCTTATCA	-0.126
CCTCTCGC	0.0126
TGGAAACA	-0.224
AAGGGGAA	-0.181
GGTCGGGA	0.0991
CATGGCAG	-0.0981
GGCTACAA	-0.0469
